{"data": "Assay results pooled from the literature", "note": "Every numbered part comes from another study and shows a few of its results, in no order. Positions count from the first letter of the parent shown."}
{"data": "Series 1", "target": "CCNB2, cyclin fold, Cln2 fusion (human)", "method": "yeast growth competition, sequencing", "sample": "yeast", "setting": "weak parent motif", "reference": "not given", "direction": "higher = stronger binding", "parent": "DNAH7 docking peptide (human); HELFQRLDFDNDG; partner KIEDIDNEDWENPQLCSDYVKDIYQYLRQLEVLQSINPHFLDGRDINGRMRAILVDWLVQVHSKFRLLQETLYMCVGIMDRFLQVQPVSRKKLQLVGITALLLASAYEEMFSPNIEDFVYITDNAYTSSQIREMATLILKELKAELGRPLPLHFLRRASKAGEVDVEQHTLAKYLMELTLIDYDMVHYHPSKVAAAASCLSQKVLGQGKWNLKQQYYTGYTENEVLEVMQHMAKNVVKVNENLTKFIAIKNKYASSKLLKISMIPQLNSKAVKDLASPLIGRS"}
{"Substitution": "L7A", "normalised enrichment score": -0.694}
{"Substitution": "N11A", "normalised enrichment score": 0.169}
{"Substitution": "E2A", "normalised enrichment score": 0.453}
{"Substitution": "D10A", "normalised enrichment score": -0.227}
{"Substitution": "Q5A", "normalised enrichment score": -0.143}
{"Substitution": "H1A", "normalised enrichment score": 0.236}
{"Substitution": "D8A", "normalised enrichment score": 0.0671}
{"data": "Series 2", "target": "Sal-like protein 4, full length isoform B (SALL4, Homo sapiens, UniProt Q9UJQ4-2, residues 1-616)", "method": "universal PBM", "form": "double-stranded DNA, one strand shown", "sample": "in vitro", "concentration": "not given", "setting": "8-mer, flanks averaged, mean of replicates", "direction": "higher = stronger binding", "Construct (chain)": "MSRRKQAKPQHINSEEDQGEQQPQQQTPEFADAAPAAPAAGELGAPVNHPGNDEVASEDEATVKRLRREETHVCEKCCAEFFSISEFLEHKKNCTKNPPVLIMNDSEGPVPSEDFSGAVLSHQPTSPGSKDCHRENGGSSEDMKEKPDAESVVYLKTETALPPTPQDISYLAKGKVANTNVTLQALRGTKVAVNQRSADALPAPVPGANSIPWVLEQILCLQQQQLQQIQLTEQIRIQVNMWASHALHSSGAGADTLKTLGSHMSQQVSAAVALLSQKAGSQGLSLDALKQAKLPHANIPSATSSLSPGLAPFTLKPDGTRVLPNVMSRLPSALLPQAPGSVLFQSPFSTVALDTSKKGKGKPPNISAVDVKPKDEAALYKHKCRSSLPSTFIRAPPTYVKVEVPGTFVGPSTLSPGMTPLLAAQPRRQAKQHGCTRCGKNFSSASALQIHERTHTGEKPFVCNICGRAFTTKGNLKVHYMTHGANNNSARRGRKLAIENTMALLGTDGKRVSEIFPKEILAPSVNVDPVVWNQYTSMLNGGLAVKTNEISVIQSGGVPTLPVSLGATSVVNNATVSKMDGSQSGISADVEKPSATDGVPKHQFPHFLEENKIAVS"}
{"Strand": "AACTAGCT", "E-score": 0.0641}
{"Strand": "TAGTAATA", "E-score": 0.415}
{"Strand": "CCGTCATC", "E-score": -0.212}
{"Strand": "GAGAACCC", "E-score": -0.163}
{"Strand": "TCAACAGA", "E-score": 0.0432}
{"Strand": "ACTGAAAG", "E-score": 0.0671}
{"Strand": "GCTACATA", "E-score": 0.215}
{"Strand": "AGGCGAAA", "E-score": -0.0732}
{"Strand": "GCTTGTCA", "E-score": 0.0143}
{"Strand": "CTCTACCA", "E-score": -0.0747}
{"Strand": "GCATAGTA", "E-score": 0.138}
{"Strand": "GAGCCGAA", "E-score": -0.0662}
{"Strand": "GAAAAGTA", "E-score": 0.23}
{"Strand": "ACATAGAA", "E-score": 0.117}
{"Strand": "TGAACAAA", "E-score": 0.153}
{"Strand": "AATCCCTG", "E-score": -0.143}
{"Strand": "GATGACTA", "E-score": 0.0777}
{"Strand": "CAACCCGA", "E-score": -0.185}
{"Strand": "ACCTCTCC", "E-score": -0.105}
{"Strand": "GAGACCAC", "E-score": -0.259}
{"Strand": "ACTCCGGG", "E-score": -0.243}
{"Strand": "CGAGAACA", "E-score": -0.137}
{"Strand": "GAAGCCCC", "E-score": -0.199}
{"Strand": "AGCCTTCC", "E-score": -0.102}
{"Strand": "ACCTTAAA", "E-score": 0.0768}
{"data": "Series 3", "target": "Histone acetyltransferase KAT6A, both winged helices, GST fusion (KAT6A, Homo sapiens, UniProt Q92794, residues 1-181)", "method": "protein binding microarray", "form": "double-stranded DNA, one strand shown", "sample": "in vitro", "concentration": "not given", "setting": "8-mer, flanks averaged, mean of 2 arrays, mostly near background", "reference": "not given", "direction": "higher = stronger binding", "Target sequence (chain)": "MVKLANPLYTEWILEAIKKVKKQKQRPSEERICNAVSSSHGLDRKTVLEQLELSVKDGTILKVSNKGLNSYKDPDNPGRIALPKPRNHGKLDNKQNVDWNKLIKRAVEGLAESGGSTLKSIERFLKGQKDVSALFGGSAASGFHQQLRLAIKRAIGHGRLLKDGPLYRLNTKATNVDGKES"}
{"Strand": "CCTCTTTA", "E-score": -0.208}
{"Strand": "GCGTAGAA", "E-score": 0.0727}
{"Strand": "AGCAATCA", "E-score": -0.134}
{"Strand": "CGAATCAA", "E-score": 0.0246}
{"Strand": "TGCATCAA", "E-score": -0.0853}
{"Strand": "GTCCGCTA", "E-score": 0.147}
{"Strand": "ACACTGTG", "E-score": -0.00579}
{"Strand": "CAGTAAAG", "E-score": -0.085}
{"Strand": "AAGCACTT", "E-score": -0.116}
{"Strand": "ATGGGAGG", "E-score": -0.105}
{"Strand": "CGTAATCC", "E-score": 0.0824}
{"Strand": "AAGCCCTG", "E-score": -0.0919}
{"Strand": "AAGGGTAC", "E-score": -0.172}
{"Strand": "CGGCGAGC", "E-score": 0.268}
{"Strand": "ACGCGGTC", "E-score": 0.295}
{"Strand": "AGCGCCAG", "E-score": 0.203}
{"Strand": "AACGAGTA", "E-score": -0.106}
{"Strand": "GTCTTAAA", "E-score": 0.0519}
{"Strand": "CTCATGTC", "E-score": -0.00847}
{"Strand": "AAGATCGC", "E-score": 0.131}
{"Strand": "CACACAGA", "E-score": -0.125}
{"Strand": "GAGCTAGA", "E-score": -0.0612}
{"Strand": "CTCAATCC", "E-score": -0.0459}
{"Strand": "AACTTTGA", "E-score": -0.0391}
{"Strand": "AGTTAACT", "E-score": 0.34}
{"data": "Series 4", "target": "ABI1, truncated, D143A, DHFR fusion (Arabidopsis thaliana)", "method": "DHFR PCA, deep sequencing", "sample": "yeast", "setting": "methotrexate growth selection, single substitutions", "with": "(+)-ABA 0.39 µM", "reference": "wild-type fitted maximum", "direction": "higher = stronger binding", "parent": "PYL1, truncated, DHFR fusion (Arabidopsis thaliana); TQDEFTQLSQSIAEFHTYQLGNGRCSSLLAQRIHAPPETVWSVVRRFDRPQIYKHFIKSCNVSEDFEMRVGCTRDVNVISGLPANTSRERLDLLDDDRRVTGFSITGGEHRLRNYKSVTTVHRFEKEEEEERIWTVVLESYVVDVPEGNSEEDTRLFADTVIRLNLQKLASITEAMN; partner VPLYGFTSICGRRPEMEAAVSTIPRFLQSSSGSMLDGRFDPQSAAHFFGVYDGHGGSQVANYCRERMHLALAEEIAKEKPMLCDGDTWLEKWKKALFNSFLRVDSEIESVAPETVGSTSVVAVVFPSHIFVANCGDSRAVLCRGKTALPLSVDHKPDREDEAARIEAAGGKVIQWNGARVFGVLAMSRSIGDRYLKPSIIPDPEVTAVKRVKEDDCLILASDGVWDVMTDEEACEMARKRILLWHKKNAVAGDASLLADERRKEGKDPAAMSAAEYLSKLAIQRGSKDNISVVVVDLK"}
{"Substitution": "L112W", "relative binding score [%]": 15.2}
{"Substitution": "P50F", "relative binding score [%]": -13.1}
{"Substitution": "G107T", "relative binding score [%]": -3.57}
{"Substitution": "A170V", "relative binding score [%]": -5.98}
{"Substitution": "T101L", "relative binding score [%]": 73.8}
{"Substitution": "F56E", "relative binding score [%]": -5.33}
{"Substitution": "R32N", "relative binding score [%]": -0.758}
{"Substitution": "R163T", "relative binding score [%]": 44.8}
{"Substitution": "H34P", "relative binding score [%]": 5}
{"Substitution": "A158C", "relative binding score [%]": 83.1}
{"Substitution": "L82A", "relative binding score [%]": 3.03}
{"Substitution": "C25R", "relative binding score [%]": -7.09}
{"Substitution": "S140F", "relative binding score [%]": -22.4}
{"Substitution": "E89Y", "relative binding score [%]": -4.4}
{"Substitution": "F47V", "relative binding score [%]": -4.46}
{"data": "Single results of other studies"}
{"Molecule": "PhoQ, residues 284 288 289 292 302 303 ALVSVA", "target": "PhoP, residues 12 14 15 18 19 LHHVQ (Escherichia coli, UniProt P23836)", "assay": "Sort-seq, measured: YFP reporter", "system": "E. coli", "setting": "PhoQ-PhoP variant library, with: 10 µM Mg2+", "how to read": "reference: high Mg2+ state, higher = stronger signaling", "measurement": "fold induction", "value": 19.7}
{"note": "For quick reference, copied from above (series 4):"}
{"Substitution": "C25R", "relative binding score [%]": -7.09}
{"Substitution": "L112W", "relative binding score [%]": 15.2}
{"Substitution": "R32N", "relative binding score [%]": -0.758}
{"Substitution": "G107T", "relative binding score [%]": -3.57}
{"Substitution": "P50F", "relative binding score [%]": -13.1}
{"Substitution": "S140F", "relative binding score [%]": -22.4}
{"Substitution": "F56E", "relative binding score [%]": -5.33}
{"Substitution": "A170V", "relative binding score [%]": -5.98}
{"Substitution": "T101L", "relative binding score [%]": 73.8}
